Earlier results as cited in several papers.
Each numbered part shows a few of the values that one paper quotes.

Series 1 — effect on: peptide-MHC binding; molecule type: peptide
Target: HLA class I histocompatibility antigen, A alpha chain, allele A*25:01 (Homo sapiens, UniProt P04439)
Molecule	IC50 [µM]
FIVEHINAM	0.029
YSLEYFQFVKK	> 20
EIKDRILSY	0.042
EYAPFARLL	> 20
NRDVSFQDL	> 20
VALFSSCPVAY	> 20
RMILPMSRAFR	> 20
AYSSWMYSY	> 20
PVTPVIPRV	> 20
HTAEIQQFF	0.021
TTFPVNGGY	0.212
FTGWRDPGL	> 20
DTVNRTHQY	0.031
DMYFCHFYK	> 20

Further values, each from its own experiment
Ar: Androgen receptor (Ar, Rattus norvegicus, UniProt P15207)
UniProt P15207, sequence (whole entry, looked up): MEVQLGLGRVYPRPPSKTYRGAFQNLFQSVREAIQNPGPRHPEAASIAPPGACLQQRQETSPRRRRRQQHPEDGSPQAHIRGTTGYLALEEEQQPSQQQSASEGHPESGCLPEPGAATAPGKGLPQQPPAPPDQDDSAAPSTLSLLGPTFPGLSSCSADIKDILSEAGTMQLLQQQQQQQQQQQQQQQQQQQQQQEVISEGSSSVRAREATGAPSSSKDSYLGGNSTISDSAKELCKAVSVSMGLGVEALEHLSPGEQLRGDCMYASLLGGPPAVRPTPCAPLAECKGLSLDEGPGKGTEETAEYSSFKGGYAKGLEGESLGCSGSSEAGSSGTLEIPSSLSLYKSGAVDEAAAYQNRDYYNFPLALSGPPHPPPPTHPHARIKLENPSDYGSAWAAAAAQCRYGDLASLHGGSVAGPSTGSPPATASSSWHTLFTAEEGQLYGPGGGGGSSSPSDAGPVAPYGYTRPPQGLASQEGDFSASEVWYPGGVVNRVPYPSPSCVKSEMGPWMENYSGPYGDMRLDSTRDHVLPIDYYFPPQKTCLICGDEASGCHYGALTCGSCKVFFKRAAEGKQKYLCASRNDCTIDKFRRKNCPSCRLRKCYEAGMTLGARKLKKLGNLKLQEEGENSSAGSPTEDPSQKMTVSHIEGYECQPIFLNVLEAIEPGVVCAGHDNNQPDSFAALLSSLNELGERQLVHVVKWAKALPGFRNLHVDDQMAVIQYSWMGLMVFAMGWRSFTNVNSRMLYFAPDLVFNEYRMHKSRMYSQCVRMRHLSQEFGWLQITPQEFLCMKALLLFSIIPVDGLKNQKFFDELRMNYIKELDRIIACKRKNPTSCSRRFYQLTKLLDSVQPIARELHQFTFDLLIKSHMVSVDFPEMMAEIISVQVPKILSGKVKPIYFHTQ
SMILES	tested on	test	test system	setting	scale	quantity	result
Nc1ncnc2c1ncn2[C@@H]1O[C@H](COP(=O)(O)OP(=O)(O)CP(=O)(O)O)[C@@H](O)[C@H]1O		phosphate ionisation	aqueous solution			pKa4	8.4
CN1CC[C@@H](c2c(O)cc(O)c3c(=O)cc(-c4ccc(C(F)(F)F)cc4Cl)oc23)[C@@H]1CO			patients with solid tumours	continuous daily dosing		maximum tolerated dose	350 mg
CC[C@H](c1ccc(O)cc1)[C@@H](CC)c1ccc(O)cc1	Ar	validation reference set		concentration not given		AR binding call	inactive
C[C@H](Cc1ccc(O)cc1)NC[C@H](O)c1cc(O)cc(O)c1	organic cation transporter 1 (human)	binding, frontal displacement chromatography		together with: [3H]-MPP+ marker		Kd	12.6 µM
Nc1ncnc2c1ncn2C1OC(COP(=O)(O)OP(=O)(O)C(F)(F)P(=O)(O)O)C(O)C1O (stereo not shown)		phosphate ionisation	aqueous solution			pKa4	7.1
CC(=O)N(N(CCCl)S(C)(=O)=O)S(C)(=O)=O			mouse, L1210 leukemia	single dose		optimal therapeutic dose	40 mg/kg
CC(O)CN1CCN(CC(=O)[O-])CCN(CC(=O)[O-])CCN(CC(=O)[O-])CC1.[Gd+3] (stereo not shown)			saline	310 K, 0.47 T		relaxivity r1	3.5 mM⁻¹ s⁻¹
Cc1cc(-c2nccc3c2ccn3CC(=O)Nc2ccc(-c3cnccn3)cn2)ccn1			dog			NOAEL	30 mg/kg/day
O=c1ccc2ncc(=O)n3c2n1C[C@H]3CN1CCC(NCc2cc3c(cn2)OCCC3)CC1			urine plus faeces	oral	reference: dose	dose eliminated by metabolism	~13%
CC(C)NC[C@@H](O)c1ccc(O)c(O)c1	organic cation transporter 1 (human)	binding, frontal displacement chromatography		together with: [3H]-MPP+ marker		Kd	180 µM
C=C(C)[C@@H]1CCC(C)=C[C@H]1c1c(O)cc(CCCCC)cc1O	CYP1A2, human	enzyme activity, inhibitor	human liver microsomes	10 µM		inhibition	inhibited
O=C1C2(Cl)C3(Cl)C4(Cl)C(Cl)(Cl)C5(Cl)C3(Cl)C1(Cl)C5(Cl)C24Cl (stereo not shown)	Ar	binding		concentration not given		activity class	active
CC[C@H](C)CCCCC(=O)N[C@@H](CCN)C(=O)N[C@H](C(=O)N[C@@H](CCN)C(=O)N[C@H]1CCNC(=O)[C@H]([C@@H](C)O)NC(=O)[C@H](CCN)NC(=O)[C@H](CCN)NC(=O)[C@H](CC(C)C)NC(=O)[C@@H](CC(C)C)NC(=O)[C@H](CCN)NC1=O)[C@@H](C)O			patients	above 5 mg/kg/day (ideal body weight)		nephrotoxicity incidence	65%
CCCCCc1cc(O)c2c(c1)OC(C)(C)c1ccc(C)cc1-2	CYP2C19, human	enzyme activity, inhibitor	human liver microsomes	10 µM		inhibition	inhibited

Repeated from above (series 1):
Molecule	IC50 [µM]
AYSSWMYSY	> 20
HTAEIQQFF	0.021
FIVEHINAM	0.029
RMILPMSRAFR	> 20
VALFSSCPVAY	> 20
